Experimental data collected from several papers.
Parts stem from different laboratories: compare values within a part only.
Chain of UniProt Q02779 (whole entry, looked up): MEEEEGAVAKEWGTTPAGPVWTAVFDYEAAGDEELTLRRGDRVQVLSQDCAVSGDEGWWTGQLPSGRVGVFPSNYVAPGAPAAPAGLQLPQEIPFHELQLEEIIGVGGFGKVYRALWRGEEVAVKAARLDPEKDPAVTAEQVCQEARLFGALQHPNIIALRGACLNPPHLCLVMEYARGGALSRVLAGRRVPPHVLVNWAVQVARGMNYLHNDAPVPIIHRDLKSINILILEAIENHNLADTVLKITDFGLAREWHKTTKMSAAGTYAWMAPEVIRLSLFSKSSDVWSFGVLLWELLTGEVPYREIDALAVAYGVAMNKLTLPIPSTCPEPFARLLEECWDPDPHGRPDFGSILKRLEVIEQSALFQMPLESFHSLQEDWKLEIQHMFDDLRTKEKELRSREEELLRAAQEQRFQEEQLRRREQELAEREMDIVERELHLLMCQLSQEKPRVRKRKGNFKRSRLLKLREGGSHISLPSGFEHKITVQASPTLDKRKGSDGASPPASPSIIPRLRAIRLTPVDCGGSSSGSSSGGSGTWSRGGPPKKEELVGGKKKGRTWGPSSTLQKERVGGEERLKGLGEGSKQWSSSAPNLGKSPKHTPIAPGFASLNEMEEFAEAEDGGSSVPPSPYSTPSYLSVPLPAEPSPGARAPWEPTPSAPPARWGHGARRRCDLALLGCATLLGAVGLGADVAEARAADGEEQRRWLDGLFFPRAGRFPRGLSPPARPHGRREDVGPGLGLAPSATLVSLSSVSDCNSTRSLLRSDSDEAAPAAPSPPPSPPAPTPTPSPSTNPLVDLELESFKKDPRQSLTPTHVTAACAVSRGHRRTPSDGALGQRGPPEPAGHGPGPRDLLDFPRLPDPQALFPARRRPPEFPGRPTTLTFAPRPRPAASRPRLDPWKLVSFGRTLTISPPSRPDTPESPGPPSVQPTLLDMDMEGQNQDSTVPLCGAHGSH
Chain of UniProt Q9H093 (whole entry, looked up): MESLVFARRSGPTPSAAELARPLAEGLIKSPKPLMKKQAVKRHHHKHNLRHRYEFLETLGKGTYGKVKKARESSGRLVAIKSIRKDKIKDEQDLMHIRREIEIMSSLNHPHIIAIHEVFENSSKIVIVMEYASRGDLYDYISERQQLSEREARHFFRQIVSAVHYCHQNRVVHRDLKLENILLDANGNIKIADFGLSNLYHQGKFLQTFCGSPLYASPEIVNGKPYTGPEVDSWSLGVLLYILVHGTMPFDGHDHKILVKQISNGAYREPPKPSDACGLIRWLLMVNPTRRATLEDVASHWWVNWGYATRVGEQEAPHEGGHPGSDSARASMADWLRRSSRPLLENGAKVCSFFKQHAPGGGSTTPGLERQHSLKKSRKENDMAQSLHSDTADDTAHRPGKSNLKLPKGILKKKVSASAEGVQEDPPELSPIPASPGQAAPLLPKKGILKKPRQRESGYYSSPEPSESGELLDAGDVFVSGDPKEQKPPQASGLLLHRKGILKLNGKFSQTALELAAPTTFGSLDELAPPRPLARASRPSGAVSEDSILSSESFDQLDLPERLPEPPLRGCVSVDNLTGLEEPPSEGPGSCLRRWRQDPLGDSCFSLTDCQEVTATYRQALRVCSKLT
Chain of UniProt Q15208 (whole entry, looked up): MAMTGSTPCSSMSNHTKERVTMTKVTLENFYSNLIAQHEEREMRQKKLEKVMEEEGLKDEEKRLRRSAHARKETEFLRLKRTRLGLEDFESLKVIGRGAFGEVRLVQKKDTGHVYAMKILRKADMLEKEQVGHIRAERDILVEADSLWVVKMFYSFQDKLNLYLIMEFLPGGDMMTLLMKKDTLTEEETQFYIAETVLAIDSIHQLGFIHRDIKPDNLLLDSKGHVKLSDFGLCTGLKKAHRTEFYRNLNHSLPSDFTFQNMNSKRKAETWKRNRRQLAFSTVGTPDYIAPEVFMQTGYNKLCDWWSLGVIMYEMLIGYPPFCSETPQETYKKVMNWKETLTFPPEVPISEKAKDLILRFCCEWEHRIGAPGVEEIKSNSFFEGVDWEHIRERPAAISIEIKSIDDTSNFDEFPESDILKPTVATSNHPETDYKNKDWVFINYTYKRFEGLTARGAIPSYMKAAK
Chain of UniProt Q9UKI8 (whole entry, looked up): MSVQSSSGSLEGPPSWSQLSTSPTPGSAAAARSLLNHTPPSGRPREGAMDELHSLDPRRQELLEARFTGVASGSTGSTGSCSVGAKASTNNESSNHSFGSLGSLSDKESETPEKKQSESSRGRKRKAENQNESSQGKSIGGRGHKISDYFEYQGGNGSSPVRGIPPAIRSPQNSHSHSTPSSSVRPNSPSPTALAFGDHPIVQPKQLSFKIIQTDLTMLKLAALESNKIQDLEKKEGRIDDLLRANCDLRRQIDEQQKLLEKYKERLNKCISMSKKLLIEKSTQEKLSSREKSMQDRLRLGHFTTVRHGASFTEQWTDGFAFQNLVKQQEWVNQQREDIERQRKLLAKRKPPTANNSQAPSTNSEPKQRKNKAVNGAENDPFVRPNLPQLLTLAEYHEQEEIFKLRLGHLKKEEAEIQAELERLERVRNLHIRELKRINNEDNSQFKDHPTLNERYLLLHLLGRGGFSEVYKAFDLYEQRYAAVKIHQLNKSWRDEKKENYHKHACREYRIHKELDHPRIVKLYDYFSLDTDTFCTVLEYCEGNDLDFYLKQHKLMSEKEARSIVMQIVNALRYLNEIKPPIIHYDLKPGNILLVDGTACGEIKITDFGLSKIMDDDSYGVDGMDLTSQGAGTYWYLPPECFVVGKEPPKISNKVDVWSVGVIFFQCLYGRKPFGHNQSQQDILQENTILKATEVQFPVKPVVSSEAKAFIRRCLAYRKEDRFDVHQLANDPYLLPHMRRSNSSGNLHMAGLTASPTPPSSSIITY
Chain of UniProt P68400 (whole entry, looked up): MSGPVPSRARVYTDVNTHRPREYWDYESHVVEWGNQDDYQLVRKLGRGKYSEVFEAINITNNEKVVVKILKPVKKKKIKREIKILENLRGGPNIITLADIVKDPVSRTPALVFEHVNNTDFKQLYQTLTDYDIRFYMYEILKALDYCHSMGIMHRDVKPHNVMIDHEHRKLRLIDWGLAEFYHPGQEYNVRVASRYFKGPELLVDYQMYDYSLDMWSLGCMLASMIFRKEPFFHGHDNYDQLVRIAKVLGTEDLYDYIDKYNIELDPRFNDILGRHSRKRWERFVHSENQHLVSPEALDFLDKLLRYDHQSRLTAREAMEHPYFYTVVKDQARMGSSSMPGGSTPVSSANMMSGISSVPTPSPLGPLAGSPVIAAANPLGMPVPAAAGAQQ

Block 1
Target: Centromere-binding protein 1, full length, His-tagged (CBF1, Saccharomyces cerevisiae, UniProt P17106, residues 1-351)
Chain of UniProt P17106 (whole entry, looked up): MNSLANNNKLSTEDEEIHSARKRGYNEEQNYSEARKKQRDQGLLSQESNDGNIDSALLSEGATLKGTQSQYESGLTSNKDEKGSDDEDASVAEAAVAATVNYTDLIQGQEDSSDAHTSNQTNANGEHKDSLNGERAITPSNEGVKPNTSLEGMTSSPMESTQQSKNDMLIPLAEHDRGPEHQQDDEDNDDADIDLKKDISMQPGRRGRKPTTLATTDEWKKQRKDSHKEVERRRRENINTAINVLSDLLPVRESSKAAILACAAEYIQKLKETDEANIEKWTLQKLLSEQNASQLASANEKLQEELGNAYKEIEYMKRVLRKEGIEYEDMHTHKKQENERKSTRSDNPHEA
Method: competition protein-binding microarray
Form: double-stranded DNA, one strand shown
Sample: in vitro
Concentration: 2 µM
Setting: whole 60-bp probe, lowest competitor level
With: Pho4 competitor, 0.05 µM
Reading: higher = stronger binding
Quantity: fluorescence intensity
All sequences stand within: … GTCTTGATTCGCTTGACGCTGCTG
GTCTTGTCTCATTGGTTCGTGGGTGTCCCCACTTCA: 87.4 a.u.
CTTTCCCGATCTTGGGCTGTGGGTGTAGCACATTTG: 71.4 a.u.
GATGACATTATGGTTAACATGATAAAGGATGAATTG: 82.4 a.u.
TTCAACGACAGAGGCCTTGTGACGCCCTGGAGCTTG: 63.5 a.u.
CTTTCCCGATCTTGCCAAGTGGGTGTAGCACATTTG: 63.2 a.u.
ATTCATGTTTGGCTACTCGTGCTTTCTTCGAAGAAT: 107 a.u.
TCAACGCCTTTTACCTTGTCCTTTGATGCCTGTCTC: 70 a.u.
ATATGTGTGCGGTTCCACGGGCAGTCGTTTATGTTG: 78.6 a.u.

Block 2
Target: Sal-like protein 4, full length isoform A (SALL4, Homo sapiens, UniProt Q9UJQ4, residues 1-1053)
Chain of UniProt Q9UJQ4 (whole entry, looked up): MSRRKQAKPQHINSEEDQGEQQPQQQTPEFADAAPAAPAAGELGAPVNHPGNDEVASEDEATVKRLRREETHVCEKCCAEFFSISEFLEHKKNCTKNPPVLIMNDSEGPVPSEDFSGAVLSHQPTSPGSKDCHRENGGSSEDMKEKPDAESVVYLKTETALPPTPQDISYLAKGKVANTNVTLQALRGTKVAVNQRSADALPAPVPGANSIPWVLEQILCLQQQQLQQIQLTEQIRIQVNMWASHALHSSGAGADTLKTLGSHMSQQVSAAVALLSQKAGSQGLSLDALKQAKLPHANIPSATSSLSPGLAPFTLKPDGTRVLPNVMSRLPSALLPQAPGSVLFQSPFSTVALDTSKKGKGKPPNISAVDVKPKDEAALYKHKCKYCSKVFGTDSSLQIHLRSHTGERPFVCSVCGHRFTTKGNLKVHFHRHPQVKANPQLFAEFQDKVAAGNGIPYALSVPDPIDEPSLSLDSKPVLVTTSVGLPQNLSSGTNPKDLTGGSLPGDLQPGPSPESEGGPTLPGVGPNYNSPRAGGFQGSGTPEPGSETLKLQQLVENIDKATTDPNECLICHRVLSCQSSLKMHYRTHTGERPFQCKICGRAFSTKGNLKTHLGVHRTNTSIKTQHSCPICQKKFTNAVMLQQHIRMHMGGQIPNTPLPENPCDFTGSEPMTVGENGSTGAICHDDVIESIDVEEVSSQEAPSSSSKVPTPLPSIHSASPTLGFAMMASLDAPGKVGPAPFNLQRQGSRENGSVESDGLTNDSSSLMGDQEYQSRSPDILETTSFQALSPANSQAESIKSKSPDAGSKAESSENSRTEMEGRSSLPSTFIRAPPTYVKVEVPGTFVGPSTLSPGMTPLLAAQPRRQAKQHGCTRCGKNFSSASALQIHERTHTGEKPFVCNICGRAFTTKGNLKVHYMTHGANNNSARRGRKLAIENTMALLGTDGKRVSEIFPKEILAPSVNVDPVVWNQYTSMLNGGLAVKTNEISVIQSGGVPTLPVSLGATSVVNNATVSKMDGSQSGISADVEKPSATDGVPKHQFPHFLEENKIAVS
Method: universal PBM
Form: double-stranded DNA, one strand shown
Sample: in vitro
Concentration: 600 nM
Setting: 8-mer, flanks averaged, mean of replicates
Reading: higher = stronger binding
Quantity: E-score
ACAACCCC: -0.229
GAAGAAGA: 0.0578
GAAGGAAC: -0.0728
GAACGCAC: -0.154
ACCCTATC: -0.154
AACTGGAC: -0.0875
ACATTTCG: 0.133
ACGGTGGA: -0.216

Block 3
Structure (SMILES): COc1cc2c(Nc3ccc(Br)cc3F)ncnc2cc1OCC1CCN(C)CC1
Read-out: enzyme activity
Mode: inhibitor
Concentration: 0.5 µM
Baseline: control
Quantity: remaining activity
RAC-gamma serine/threonine-protein kinase (AKT3, Homo sapiens, UniProt Q9Y243): 100%
Mitogen-activated protein kinase kinase kinase 10 (MAP3K10, Homo sapiens, UniProt Q02779): 102%
Protein kinase C delta type (PRKCD, Homo sapiens, UniProt Q05655): 103%
Casein kinase II subunit alpha (CSNK2A1, Homo sapiens, UniProt P68400): 112%
Serine/threonine-protein kinase 38 (STK38, Homo sapiens, UniProt Q15208): 100%
Tyrosine-protein kinase Lyn (LYN, Homo sapiens, UniProt P07948): 10.8%
Ephrin type-A receptor 5 (EPHA5, Homo sapiens, UniProt P54756): 54.4%

Block 4
SMILES: CN(C)CC#Cc1ccc(OCCCc2sc(N3CCc4cccc(C(=O)Nc5nc6ccccc6s5)c4C3)nc2C(=O)O)c(F)c1
Read-out: cell-free assay
Method: competition with immobilised ligand
Concentration: 1 µM
Quantity: remaining binding
Misshapen-like kinase 1 (MINK1, Homo sapiens, UniProt Q8N4C8): 88%
NUAK family SNF1-like kinase 2 (NUAK2, Homo sapiens, UniProt Q9H093): 82%
Mitogen-activated protein kinase kinase kinase kinase 4 (MAP4K4, Homo sapiens, UniProt O95819): 96%
Serine/threonine-protein kinase Nek1 (NEK1, Homo sapiens, UniProt Q96PY6): 100%
Serine/threonine-protein kinase pim-3 (PIM3, Homo sapiens, UniProt Q86V86): 91%
Mitogen-activated protein kinase kinase kinase 10 (MAP3K10, Homo sapiens, UniProt Q02779): 100%
Dual specificity mitogen-activated protein kinase kinase 5 (MAP2K5, Homo sapiens, UniProt Q13163): 100%
Mitogen-activated protein kinase 7 (MAPK7, Homo sapiens, UniProt Q13164): 99%
Mitogen-activated protein kinase 13 (MAPK13, Homo sapiens, UniProt O15264): 97%
Ephrin type-A receptor 6 (EPHA6, Homo sapiens, UniProt Q9UF33): 100%
Serine/threonine-protein kinase tousled-like 1 (TLK1, Homo sapiens, UniProt Q9UKI8): 86%
Macrophage-stimulating protein receptor (MST1R, Homo sapiens, UniProt Q04912): 99%
Receptor tyrosine-protein kinase erbB-2 (ERBB2, Homo sapiens, UniProt P04626): 100%

Excerpt of the above (block 2):
GAAGGAAC: -0.0728
GAACGCAC: -0.154
ACCCTATC: -0.154
AACTGGAC: -0.0875
ACATTTCG: 0.133
ACGGTGGA: -0.216
